Results of several laboratories.
A part holds a random share of what one study measured.

Block 1
Target: RNA binding protein fox-1 homolog 2, RRM domain, GST-SBP tag (RBFOX2, Homo sapiens, UniProt O43251-10, residues 100-194)
Method: RNA Bind-n-Seq
Form: RNA
Medium: in vitro
Tested at: 365 nM
Notes: natural RNA segment, single round, ends assumed
Baseline: no-protein control
Reading: higher = stronger binding
Construct (chain): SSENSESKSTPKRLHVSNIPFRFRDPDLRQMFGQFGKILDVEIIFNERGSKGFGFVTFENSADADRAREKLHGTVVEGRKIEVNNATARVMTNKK
| Strand | RBNS enrichment (R) |
| --- | --- |
| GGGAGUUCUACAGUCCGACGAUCAAUAUGCAUUUAGCUUUAGUUUACUGAACAGUAAACAUGCUUUUAUUUCUUGCUAUGAGAGUAUUUUGUAUGGUAUUAUUUCUUUUUUGUUGUAAGCUAACAAGUGGAGAUGGAAUUCUCGGGUGCCAA | 0.327 |
| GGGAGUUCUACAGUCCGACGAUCAUCAAAUCUAUUCAGGUUUCUUCACUGUUGAGAACACCUAAAUGUUUUUAUUUUUGAGAAGUGGGGACAGAGUCUCACUAUGUCACCCAGGCUGGAGUGCAAUGGCAUGAUGGAAUUCUCGGGUGCCAA | 0.886 |
| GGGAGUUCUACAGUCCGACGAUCGGUAUCCAGGCUCCAACGACCUCAUGCAGGACUCAGACCUGACCCACUGAAUCCCGAGGAGAGGCUGAAAAAAUCAGAGUAGAAACCAGCAACAUUUACAAGUGUGUCUGUGGAAUUCUCGGGUGCCAA | 0.343 |
| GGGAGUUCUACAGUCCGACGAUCGUGGUAAGGGUUGGGCCCCCAGCCUGUAGGGAACUUUCUGGACUCCCACUCUUUGAAUCGAUAUAGGCAUUUGGUCUCACUACUUGACCAUUCUCACCCUGUGAAACGUCUGGAAUUCUCGGGUGCCAA | 1.57 |
| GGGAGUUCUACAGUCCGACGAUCACAAGAUAAAUUGAGCUAGUUAAGGCAAAUCAGGUAAAAUAGUCAUGAUUCUAUGUAAUGUAAACCAGAAAAAAUAAAUGUUCAUGAUUUCAAGAUGUUAUAUUAAAGAAUGGAAUUCUCGGGUGCCAA | 0.499 |
| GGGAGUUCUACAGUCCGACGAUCUGAAACAAACUCCAGGCCCUUUGUUGCCAGUGGCUGGGCCUAAGGGUUGCCCCGGGACCGUGCUCAGCUGCUCUGCAUGCCCUGUCCUACUGACAGGUACCUUAGUUCUGUGGAAUUCUCGGGUGCCAA | 3.13 |
| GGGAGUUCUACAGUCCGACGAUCAAACCCUUUGAAUGAAAUUGUGGCACAAAAUCUGUUCAGGUUGGUGUACCGUGUAAAGUGGGGAUGGGGUAAAAGUGGUUAACGUACUGUUGGAUCAACAAAUAAAGGUUUGGAAUUCUCGGGUGCCAA | 1.18 |
| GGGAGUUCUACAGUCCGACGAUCUUAACCGUUCAAGCGGGGAAUUAAAACAAACUUUUGGACUAUUUUUUUUUAAUUGUUCUUUAUGUUUAAAACUUGCAGAGAUAGAAGCAGGCUUCUGAGGUACGGGGUCUUGGAAUUCUCGGGUGCCAA | 0.609 |

Block 2
Target: Transcription factor SOX-2, HMG box (SOX2, Homo sapiens, UniProt P48431, residues 19-118)
Sequence of UniProt P48431 (19-118, looked up): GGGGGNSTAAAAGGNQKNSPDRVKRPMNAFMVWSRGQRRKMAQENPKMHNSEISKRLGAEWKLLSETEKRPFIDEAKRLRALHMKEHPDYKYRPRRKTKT
Method: protein-binding microarray
Form: double-stranded DNA, one strand shown
Medium: in vitro
Tested at: not given
Notes: k-mer, scored over probes, only values ≥0.25
Reading: higher = stronger binding
| Strand | E-score |
| --- | --- |
| AATAGTC | 0.287 |
| ATCAAAT | 0.283 |
| TAGAGAA | 0.253 |
| GACAATC | 0.353 |
| ATTATAC | 0.343 |
| AATTTCA | 0.27 |
| AATAGAT | 0.371 |
| AATAACA | 0.356 |
| AATTTAA | 0.318 |
| CCTTTTC | 0.332 |
| TGAATCA | 0.312 |
| AAATTGA | 0.354 |
| CAATGCC | 0.275 |

Block 3
Target: Histone acetyltransferase KAT6A, both winged helices, GST fusion (KAT6A, Homo sapiens, UniProt Q92794, residues 1-181)
Method: protein binding microarray
Form: double-stranded DNA, one strand shown
Medium: in vitro
Tested at: not given
Notes: 8-mer, flanks averaged, mean of 2 arrays, mostly near background
Baseline: not given
Reading: higher = stronger binding
Residues (chain): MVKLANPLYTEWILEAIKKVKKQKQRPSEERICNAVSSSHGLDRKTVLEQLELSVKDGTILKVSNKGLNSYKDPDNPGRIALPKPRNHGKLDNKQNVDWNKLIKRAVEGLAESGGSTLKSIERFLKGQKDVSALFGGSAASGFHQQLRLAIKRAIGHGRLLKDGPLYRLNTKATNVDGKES
| Strand | E-score |
| --- | --- |
| ATCTGGTC | -0.105 |
| CCCTTTCC | -0.00346 |
| ATAGATTC | -0.148 |
| AACCGATT | 0.086 |
| GCATAGAC | 0.0779 |
| GACGGTTA | 0.122 |
| ATTCACCG | 0.201 |
| CCGTACTA | 0.249 |
| GTAATGTA | 0.0913 |
| CGGATAAA | 0.213 |
| CTAAGAAG | -0.0724 |
| AGTTTAGA | -0.214 |
| CTTCGCAA | -0.0252 |
| ATTAAAAA | -0.0216 |
| CAGAACAG | -0.137 |
| ATTCAAAG | -0.0518 |
| CTAGCAAA | -0.088 |
| TAGTACCA | -0.124 |
| AACTTAAT | -0.121 |
| CTGGGGCC | -0.0504 |
| CACCGACG | 0.277 |
| ATTAGACA | -0.0885 |
| ATACTACC | 0.0293 |
| AACGTGTA | -0.088 |
| AGCTTAGA | -0.0424 |

Block 4
Organism: Saccharomyces cerevisiae
Read-out: binding
Method: yeast competitive growth sequencing
Form: peptide
Strain: cyclin D1-Cln2 strain
Medium: peptide tiling library
Notes: pooled screen
Reading: direction not given
| Sequence | enrichment score |
| --- | --- |
| LRRKLFLDGNGSIS | -1.76 |
| KVKRRLDLDIDGLQKE | -0.402 |
| VSRNLRSSLKSSLHTL | -2.71 |
| RKLDLEGIGR | -0.534 |
| ARKRLELGNLGNPQ | -1.16 |
| GFGFLLFICKLTF | -0.941 |
| NNIRKALSFDNRGEEH | -0.817 |
| RRVLCFDS | -1.34 |
| LRRQLSFSED | 0.182 |
| SCCKRKLVVGNGPEGP | -1.31 |
| RKLHFEDEVT | 2.87 |
| PQWPCGKHKRVLIFAS | -2.09 |

For quick reference, copied from above (block 1):
| Strand | RBNS enrichment (R) |
| --- | --- |
| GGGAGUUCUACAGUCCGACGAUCAAUAUGCAUUUAGCUUUAGUUUACUGAACAGUAAACAUGCUUUUAUUUCUUGCUAUGAGAGUAUUUUGUAUGGUAUUAUUUCUUUUUUGUUGUAAGCUAACAAGUGGAGAUGGAAUUCUCGGGUGCCAA | 0.327 |
| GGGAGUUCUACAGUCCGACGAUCAUCAAAUCUAUUCAGGUUUCUUCACUGUUGAGAACACCUAAAUGUUUUUAUUUUUGAGAAGUGGGGACAGAGUCUCACUAUGUCACCCAGGCUGGAGUGCAAUGGCAUGAUGGAAUUCUCGGGUGCCAA | 0.886 |
| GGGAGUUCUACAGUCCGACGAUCGGUAUCCAGGCUCCAACGACCUCAUGCAGGACUCAGACCUGACCCACUGAAUCCCGAGGAGAGGCUGAAAAAAUCAGAGUAGAAACCAGCAACAUUUACAAGUGUGUCUGUGGAAUUCUCGGGUGCCAA | 0.343 |
| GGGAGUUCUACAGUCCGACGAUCGUGGUAAGGGUUGGGCCCCCAGCCUGUAGGGAACUUUCUGGACUCCCACUCUUUGAAUCGAUAUAGGCAUUUGGUCUCACUACUUGACCAUUCUCACCCUGUGAAACGUCUGGAAUUCUCGGGUGCCAA | 1.57 |
| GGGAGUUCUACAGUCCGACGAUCACAAGAUAAAUUGAGCUAGUUAAGGCAAAUCAGGUAAAAUAGUCAUGAUUCUAUGUAAUGUAAACCAGAAAAAAUAAAUGUUCAUGAUUUCAAGAUGUUAUAUUAAAGAAUGGAAUUCUCGGGUGCCAA | 0.499 |
